Published values collected from several papers.
Protocols differ between the studies behind these lines. “And” joins repeats or separate records; there may be more than shown.
Target: Serine/threonine-protein kinase SIK3 (SIK3, Homo sapiens, UniProt Q9Y2K2)

SMILES | test | system | setting | how to read | quantity | result
CCN1CCN(Cc2ccc(C(=O)Nc3ccc(C)c(NCc4cnc5[nH]ccc5c4OC)c3)cc2C(F)(F)F)CC1 | binding, competition with immobilised ligand |  | 1 µM |  | remaining binding | 52%
Cc1cnc2nc1Nc1cccc(c1)COC/C=C/COCc1cc(ccc1OCCN1CCOCC1)N2 | kinase binding panel |  | concentration not given | relative to: control | remaining binding | 100%
C=CC(=O)N1CCCC(n2c(=O)c3ncccc3n(Cc3ccc(Oc4ccccc4)cc3)c2=O)C1 (stereo not shown) | cell-free assay, competition with immobilised ligand |  | 1 µM |  | remaining binding | 82%
C=CC(=O)N1Cc2nc(-c3cc(-c4cc(Cl)cnc4Cl)c(F)cc3F)n(-c3ccncn3)c2C1 | cell-free assay, inhibitor |  | 1 µM |  | inhibition | -5.8%
N[C@H]1CC[C@H](Nc2nccc(-c3cccnc3Oc3ccc(NC(=O)NC4CC4)c4ccccc34)n2)CC1 | kinobead competition pulldown | HEK293/HCT116 lysate mixture | 10 µM, 1 h, 4 °C | lower = stronger competition | log2 LFQ intensity | 20.9 and 18.4 and 20 and 18.7
CN1CCN(Cc2ccc(-c3ccc(CO[C@H]4CCC[C@@H]4NC(=O)c4cc(-c5cnn(C)c5)cnc4N)cc3)cc2)CC1 | enzyme activity, inhibitor |  | 0.1 µM |  | inhibition | 11%
CN1CC[C@@H](COc2cnc(C#N)cc2-c2ccn3nc(NC(=O)C4CC4)cc3c2)C1 | enzyme activity, inhibitor |  | 1 µM |  | inhibition | 83%
COc1c(Cl)cccc1Nc1c(-c2ccncc2C#C[C@@]2(C)CCCN2C(=O)/C=C/CN(C)C)[nH]c2c1C(=O)NCC2 | binding, competition with immobilised ligand |  | 3 µM |  | remaining binding | 74%
CCn1cc(C(=O)O)c(=O)c2c(N)c(F)c(NC3CCCCC3)cc21 | kinase activity |  | 0.1 µM, with: ATP at Km |  | inhibition | 1.3%
COc1ccccc1-c1ccn2nc(NC(=O)C3CC3)cc2c1 |  |  |  | relative to: SIK2 Ki over SIK3 Ki | selectivity ratio | 18 fold
CC(C)=CC1OC(C)(C)C2C=C3C(=O)C(Cl)=CC(O)C3C3C(O)C4OC4C(=O)C132 (stereo not shown) | cell-free assay, competition with immobilised ligand |  | 10 µM |  | remaining binding | 88%
Nc1ncc2c(n1)-c1c([nH]c3ccc(C4=CCOCC4)cc13)CCC2 | binding, competition with immobilised ligand |  | 1 µM |  | remaining binding | 84%
C=CC(=O)N1CCc2ccc(-n3c(=O)ccc4cnc5ccc(-c6cnn(C)c6)cc5c43)cc21 | KINOMEscan |  | 1 µM | relative to: DMSO control | remaining binding | 100%
COc1cc(Nc2nccc(-c3cnn4nc(OC)ccc34)n2)cc(C(F)(F)F)c1 | binding, competition with immobilised ligand |  | 1 µM |  | remaining binding | 100%
Cc1ccc(C(=O)Nc2ccc(CN3CCN(C)CC3)c(C(F)(F)F)c2)cc1C#Cc1cnc2cccnn12 | target engagement, NanoBRET | human cells |  |  | upper asymptote | 6040
CNC(=O)C1CCN(c2cc(C)c(F)cc2NC(=O)c2ccc(-c3cc(O)ccc3C)c(C)c2)CC1 | binding, competition with immobilised ligand |  | 1 µM |  | remaining binding | 84%
CNC(=O)C[C@H](Cc1ccc(C#N)cc1)NC(=O)c1cc(-c2ccc(CN[C@H](C)c3ccc(C)cc3)o2)ccc1Cl | enzyme activity, inhibitor |  | 1 µM |  | activity vs control | 119%
O=C(Cc1ccc(OCc2ccccc2)cc1)NC1(C(=O)O)CCN(C(=O)c2ccc(-c3cccc(Cl)c3)cc2)CC1 | enzyme activity, inhibitor |  | 10 µM |  | activity vs control | 115%
CNC1C[S+]2CC[S+]3CC[S+](C1)[Ru-4]321([N]=C=S)[n]2c3ccc(OC)cc3c3c4c(c5cc(F)c[n+]1c5c32)C(=O)NC4=O (stereo not shown) | KinomeScan |  | 0.1 µM | relative to: untreated | remaining binding | 85%

A few entries again:
SMILES | test | system | setting | how to read | quantity | result
Cc1cnc2nc1Nc1cccc(c1)COC/C=C/COCc1cc(ccc1OCCN1CCOCC1)N2 | kinase binding panel |  | concentration not given | relative to: control | remaining binding | 100%
CCN1CCN(Cc2ccc(C(=O)Nc3ccc(C)c(NCc4cnc5[nH]ccc5c4OC)c3)cc2C(F)(F)F)CC1 | binding, competition with immobilised ligand |  | 1 µM |  | remaining binding | 52%
